Experimental data of several laboratories.
Every numbered part comes from another study and shows a few of its results, in no order.

Study 1
Target: Sal-like protein 4, full length isoform A (SALL4, Homo sapiens, UniProt Q9UJQ4, residues 1-1053)
Chain of UniProt Q9UJQ4 (whole entry, looked up): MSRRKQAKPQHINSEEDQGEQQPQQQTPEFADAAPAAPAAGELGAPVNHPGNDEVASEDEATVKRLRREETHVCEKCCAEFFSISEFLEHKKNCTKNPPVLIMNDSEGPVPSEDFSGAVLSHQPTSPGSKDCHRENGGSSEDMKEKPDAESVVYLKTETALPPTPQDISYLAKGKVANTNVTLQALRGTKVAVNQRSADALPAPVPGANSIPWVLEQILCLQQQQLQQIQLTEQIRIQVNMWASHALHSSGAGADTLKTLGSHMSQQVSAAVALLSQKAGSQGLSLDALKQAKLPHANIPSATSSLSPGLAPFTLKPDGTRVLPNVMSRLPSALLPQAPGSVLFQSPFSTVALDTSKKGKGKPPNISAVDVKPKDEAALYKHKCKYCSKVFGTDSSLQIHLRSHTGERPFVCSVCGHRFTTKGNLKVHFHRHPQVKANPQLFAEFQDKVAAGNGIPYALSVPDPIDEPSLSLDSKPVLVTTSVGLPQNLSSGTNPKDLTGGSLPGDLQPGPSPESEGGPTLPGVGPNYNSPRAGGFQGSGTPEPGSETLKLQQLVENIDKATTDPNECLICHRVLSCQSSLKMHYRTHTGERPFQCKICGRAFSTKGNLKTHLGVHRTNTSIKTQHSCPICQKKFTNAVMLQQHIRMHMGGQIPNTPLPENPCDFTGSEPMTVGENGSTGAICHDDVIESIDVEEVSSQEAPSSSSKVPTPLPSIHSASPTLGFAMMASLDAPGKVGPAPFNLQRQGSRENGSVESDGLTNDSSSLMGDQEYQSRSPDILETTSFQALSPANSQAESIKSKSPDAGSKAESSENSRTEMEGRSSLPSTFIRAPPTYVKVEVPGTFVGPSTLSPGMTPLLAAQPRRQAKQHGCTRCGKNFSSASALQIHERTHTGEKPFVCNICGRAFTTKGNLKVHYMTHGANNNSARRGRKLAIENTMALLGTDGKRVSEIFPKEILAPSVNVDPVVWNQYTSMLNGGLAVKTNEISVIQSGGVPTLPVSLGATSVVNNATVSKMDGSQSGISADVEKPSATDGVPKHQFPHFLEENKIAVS
Method: universal PBM
Form: double-stranded DNA, one strand shown
Sample: in vitro
Tested at: 600 nM
Notes: 8-mer, flanks averaged, mean of replicates
Reading: higher = stronger binding
`GCACAACA` has an E-score of 0.143.
For `AAGATTAC`, the E-score was 0.17.
For `CATTCTCG`, the E-score was 0.0246.
`AGTGTAAT` gave an E-score of 0.252.
For `CGTTTCAA`, the E-score was 0.0722.
With `CAAAAGTC` the E-score was 0.00133.

Study 2
Target: Histone acetyltransferase KAT6A, winged helix 1, GST fusion (KAT6A, Homo sapiens, UniProt Q92794, residues 1-85)
Method: protein binding microarray
Form: double-stranded DNA, one strand shown
Sample: in vitro
Tested at: not given
Notes: 8-mer, flanks averaged, mean of 2 arrays, mostly near background
Baseline: not given
Reading: higher = stronger binding
Residues (chain): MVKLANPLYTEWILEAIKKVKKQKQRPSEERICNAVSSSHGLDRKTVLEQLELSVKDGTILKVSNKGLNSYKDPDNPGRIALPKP
For `CCGAGTGA`, the E-score was -0.0548.
For `AGGCACAT`, the E-score was -0.137.
`CGATCATA` gave an E-score of -0.00413.
For `ATGGCACA`, the E-score was -0.181.
With `GGATTGTA` the E-score was -0.0138.
With `CATGCGCG` the E-score was 0.423.

Study 3
Target: Fragile X messenger ribonucleoprotein 1, C-terminal low-complexity region (Fmr1, Mus musculus, UniProt P35922)
Method: RNA Bind-n-Seq
Form: RNA
Sample: in vitro
Tested at: 200 nM
Notes: whole 134-nt RNA, ends assumed
Added: 150 mM LiCl
Baseline: input library
Reading: higher = stronger binding
Library: 7-deaza-guanosine replaces G
All sequences stand within: GGGAGUUCUACAGUCCGACGAUC … UGGAAUUCUCGGGUGUCAAGG
The log2 enrichment of `UAACUUUAGAGGAGGAUCUGAUGGAUAUGGCAGUGGACGUGGAUUUGGGGAUGGCUAUAGUGGGUAUGGAGGAGGACCUGGAGGUGGCAA` is reported as 0.345.
The log2 enrichment of `GUCCUGUGCUACACAUCGUAUGUACCGAAUCAAAUUUUUAAACCCAAACCCCCCCAAAAAAGUAUUAUGUUACGCCGUUCGGAUCUGCAC` is reported as 1.19.
With `CACAGACAACACGCACCCACACAGACACAGAGGGAAGGGGUUGGGAUGGGGACAGGGUGCACAGCAGGGCGGGGUAGGACCCCAGCCCCA` the log2 enrichment was 0.281.
`GUCCUGUGCUACACAUCGUAUGUACCGAAUCGGGGUUUUUGGGGUUUUUGGUUUUUGGGAAAGUAUUAUGUUACGCCGUUCGGAUCUGCA` has a log2 enrichment of -1.52.
`CAUCCUUUGGGCCCCUCAAGGCCUUCAACCUGGUCAAGGACAGUGCCACGGGGCUCUCCAAGGGCUACGCCUUCUGUGAGUACGUGGACA` has a log2 enrichment of -0.518.

Further values, each from its own experiment
With `PhoQ, residues 284 288 289 292 302 303 TTSMTC` the fold induction was 2.99 (PhoP, residues 12 14 15 18 19 TTLRV (Escherichia coli, UniProt P23836); Sort-seq, refers to: YFP reporter; E. coli; PhoQ-PhoP variant library, added: 10 µM Mg2+; baseline: high Mg2+ state, higher = stronger signaling).
